# Results of several laboratories.
# Each line is one published result; not all experiments were run side by side. ± gives the spread as reported.
Structure (SMILES),assay,test system,setting,scale,endpoint,result
CC(C)(O)c1ncc([S@](N)(=O)=NC(=O)Nc2c3c(cc4c2CCC4)CCC3)s1,,healthy humans,"oral, dose not given, all study parts all active",,number of TEAEs,206
CCCC[C@H](NC(=O)CNC(=O)CNC(=O)CN1CCN(CC(=O)O)CCN(CC(=O)O)CCN(CC(=O)O)CC1)C(=O)N[C@H]1CC(=O)NCCCC[C@@H](C(N)=O)NC(=O)[C@H](Cc2c[nH]c3ccccc23)NC(=O)[C@H](CCCNC(=N)N)NC(=O)[C@@H](Cc2ccccc2)NC(=O)[C@H](Cc2c[nH]cn2)NC1=O [gallium-67 labelled],,"female C57 mice, B16/F1 melanoma","intravenous, 0.037 MBq, 0.5 h",reference: tumour over kidney,tumour to tissue ratio,1.76
Cc1nc(N[C@@H](C)c2ccc(-c3nc(C4CC4)no3)cc2)c2cc(C)oc2n1,,"human, plasma",,,unbound fraction,0.0003
OC1(C(F)(F)F)CCN(c2nc(Nc3ccnc(C(F)(F)F)c3)nc(-c3cccc(C(F)(F)F)n3)n2)C1 (stereo not drawn),,"human, plasma","0.5, 5 and 50 µM, 6 h",,unbound fraction,< 0.005
CC12N3Cc4c(c(OCCCS(=O)(=O)[O-])c5ccccc5c4OCCCS(=O)(=O)[O-])CN1C(=O)N1Cc4c(c(OCCCS(=O)(=O)[O-])c5ccccc5c4OCCCS(=O)(=O)[O-])CN(C3=O)C12C.[Na+].[Na+].[Na+].[Na+] (stereo not drawn),,,"pD 7.4, added: camptothecin",,phase solubility slope,0.54 ± 0.032
C=C(c1cc(F)c(C(=O)O)c(F)c1)c1cc2c(cc1C)C(C)(C)CCC2(C)C,,"Sprague-Dawley rat, male, plasma","oral, 100 mg/kg, 24 h, sesame oil vehicle",,HDL level,30 ± 4.4 mg/dL
NC(=O)c1ccc(C(=O)NOCc2ccc(Sc3cccc(Cl)c3)c(C(F)(F)F)c2)cc1,,"male ICR mouse, plasma","intravenous, 10 mg/kg",,AUC(0-t),14600 ng·h/mL
Cc1ccc(OCC(=O)N(Cc2cccs2)c2ccn[nH]2)cc1,,"male beagle dog, plasma","oral, 10 mg/kg, single dose",,AUC(0-t),119 ng·h/mL
[11CH3]c1ccc2nc(C3CCC3)n(-c3ccc4[nH]ncc4c3)c2n1,extrapolated from mouse biodistribution,"human female, gallbladder wall",,,absorbed dose,4.8 µSv/MBq
C#CCOc1ccc(/C=C2\SC(=O)N(CC(=O)NCc3ccccc3)C2=O)cc1,inverse Kirkwood-Buff integrals,binary solvent mixture,"298.15 K, mole fraction x1 0.00",,"Kirkwood-Buff integral G2,3",-257 cm³/mol
CC(C)(Sc1ccncc1-c1ccc(C#N)c2ccccc12)C(=O)OC1OC(C(=O)O)C(O)C(O)C1O (stereo not drawn),,plasma,"oral, 15 mg, normal renal function, fasted",,terminal half-life,11.9 h
CCCC[C@@H]1NC(=O)[C@@H](NC(=O)[C@H](CCC(=O)O)NC(=O)CNC(=O)CN2CCN(CC(=O)O)CCN(CC(=O)O)CCN(CC(=O)O)CC2)CCCCNC(=O)C[C@@H](C(N)=O)NC(=O)[C@H](C(C)C)NC(=O)[C@@H]2CCCN2C(=O)[C@H](CCCNC(=N)N)NC(=O)CNC(=O)[C@H](Cc2c[nH]c3ccccc23)NC(=O)[C@H](CCCNC(=N)N)NC(=O)[C@@H](Cc2ccccc2)NC(=O)[C@H](Cc2c[nH]cn2)NC(=O)[C@H](CCC(=O)O)NC1=O [gallium-67 labelled],,C57 mice with B16/F1 melanoma,"intravenous, 0.037 MBq/mouse, 4 h",reference: tumour over muscle,tumour to muscle ratio,203
Cc1cccc(-c2cccc(C)n2)n1.Cc1cccc(-c2cccc(C)n2)n1.[Cl-].[Cl-].[Ru+2].c1ccc(-c2ccnc3c2ccc2c(-c4ccccc4)ccnc23)cc1,,phosphate buffer with NaCl,"pH 6.0, 37 °C, photoactivated, dialysis",,release from nanoassemblies,50.3%
COc1ccc2cc(-c3ccc(-c4ccc(C)cn4)nc3)oc2c1,,DMF,added: quinine bisulfate reference,,fluorescence quantum yield,0.69
CCC(=O)NC1CC=C(c2cc3c(Nc4ccc5scnc5c4)ncnc3s2)CC1 (stereo not drawn),,"BALB/c mouse, plasma","oral, 10 mg/kg, 2 h",,concentration,84.5 ng/mL
